Measured values gathered from unrelated publications.
A part holds a random share of what one study measured. Positions count from the first letter of the parent shown.

Block 1 — target: CCNA1, cyclin fold, Cln2 fusion (human); method: yeast growth competition, sequencing; sample: yeast; setting: weak parent motif; reference: not given; direction: higher = stronger binding; quantity: normalised enrichment score
Starting sequence: BRCA2 docking peptide (human); PSIKRNLLNEFDR
PSIKHNLLNEFDR [R5H]: 0.216
PSIKRNDLNEFDR [L7D]: 0.081
PSIKRNLLNPFDR [E10P]: 0.196
PSYKRNLLNEFDR [I3Y]: 0.51
PSIKRNLLMEFDR [N9M]: 0.583
PSIVRNLLNEFDR [K4V]: 0.564
PSQKRNLLNEFDR [I3Q]: 0.0762
PSIKRNLGNEFDR [L8G]: 0.449
FSIKRNLLNEFDR [P1F]: 0.437
PSIKRNLLSEFDR [N9S]: 0.542

Block 2 — method: protein-binding microarray; form: double-stranded DNA, one strand shown; sample: in vitro; concentration: 940 nM top; setting: 60-bp whole probe; together with: salmon DNA 0.4 mg/ml; reference: random background probes; direction: higher = stronger binding; quantity: fitted relative affinity; all sequences stand within: GCCTAGCAC … GTCTTGATTCGCTTGACGCTGCTG
Target: Interferon regulatory factor 5, full length, phosphomimetic (IRF5, Homo sapiens, UniProt Q13568-2, residues 1-514, S451D/S453D/S456D/S462D)
TCATTCTTCCCTGTGAAACTGTGCTAG: 0.871 z-score
GACGCACTGGGGTTTCGAGACGTGCTA: 2.02 z-score
GACCGTCTCCTTTTCCTGACGTGCTAG: 0.652 z-score
TTAGCTATCGGTATCGGTTAGTGCTAG: 5.02 z-score
CCACTCTTGCTTTTTAGATCGTGCTAG: 1.07 z-score
TTATGTATCGACTTTCGGTTAGTGCTA: 4.19 z-score
GTAGGTCTCCTACTGCTTTAGTGCTAG: -0.422 z-score
TGAGTCTTCCCTTTTAAGTTGTGCTAG: 0.86 z-score
TCAAACTTCCCAATGGTACTGTGCTAG: 0.401 z-score
GACGGACTGGGGATCGGGACGTGCTAG: -0.0694 z-score
GACGGTATCGACACTGGAGACGTGCTA: 3.72 z-score
TTAGATCTCAGTCTCGACTAGTGCTAG: 1.58 z-score

Block 3 — target: CRIPT, C-terminal peptide; method: DHFR complementation, deep sequencing; sample: yeast; reference: wild type; direction: higher = weaker binding; quantity: binding free energy change
Setting: single substitutions, model-inferred values
Starting sequence: ERBIN, PDZ domain 1 (human); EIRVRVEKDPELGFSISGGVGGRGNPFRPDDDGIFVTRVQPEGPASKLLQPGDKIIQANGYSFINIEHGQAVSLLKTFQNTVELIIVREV; partner TKNYKQTSV
D31N: 2.46 kJ/mol
Q57W: 0.62 kJ/mol
A71Y: 4.74 kJ/mol
L74Y: -0.224 kJ/mol
R5S: 0.413 kJ/mol
G33E: 3.33 kJ/mol
R23I: 1.57 kJ/mol
V90P: 0.541 kJ/mol
F35D: 3.28 kJ/mol
G43C: 3.53 kJ/mol

Mixed results
PhoQ, residues 284 288 289 292 302 303 WSHMKI
fold induction (PhoP, residues 12 14 15 18 19 AQALL (Escherichia coli, UniProt P23836); Sort-seq, measured: YFP reporter; E. coli; PhoQ-PhoP variant library, together with: 10 µM Mg2+; reference: high Mg2+ state, higher = stronger signaling): 16.7

Some of these lines once more (block 2):
CCACTCTTGCTTTTTAGATCGTGCTAG: 1.07 z-score
GACGGTATCGACACTGGAGACGTGCTA: 3.72 z-score
TTAGCTATCGGTATCGGTTAGTGCTAG: 5.02 z-score
TTATGTATCGACTTTCGGTTAGTGCTA: 4.19 z-score
